# Assay results from different studies.
# Protocols differ between the studies behind these lines.
# Method: steady-state kinetics
# B1: cyc1 F96Y (Streptomyces coelicolor, UniProt Q9K499); chain MHAFPHGTTATPTAIAVPPSLRLPVIEAAFPRQLHPYWPKLQETTRTWLLEKRLMPADKVEEYADGLCYTDLMAGYYLGAPDEVLQAIADYSAWFYVWDDRHDRDIVHGRAGAWRRLRGLLHTALDSPGDHLHHEDTLVAGFADSVRRLYAFLPATWNARFARHFHTVIEAYDREFHNRTRGIVPGVEEYLELRRLTFAHWIWTDLLEPSSGCELPDAVRKHPAYRRAALLSQEFAAWYNDLCSLPKEIAGDEVHNLGISLITHHSLTLEEAIGEVRRRVEECITEFLAVERDALRFADELADGTVRGKELSGAVRANVGNMRNWFSSVYWFHHESGRYMVDSWDDRSTPPYVNNEAAGEK
# B2: BaiA2 (Clostridium scindens, UniProt P19337); chain MNLVQDKVTIITGGTRGIGFAAAKIFIDNGAKVSIFGETQEEVDTALAQLKELYPEEEVLGFAPDLTSRDAVMAAVGQVAQKYGRLDVMINNAGITSNNVFSRVSEEEFKHIMDINVTGVFNGAWCAYQCMKDAKKGVIINTASVTGIFGSLSGVGYPASKASVIGLTHGLGREIIRKNIRVVGVAPGVVNTDMTNGNPPEIMEGYLKALPMKRMLEPEEIANVYLFLASDLASGITATTVSVDGAYRP
# B3: NADK2 (Homo sapiens, UniProt Q4G0N4); chain DGGFRPSRVVVVAKTTRYEFEQQRYRYAELSEEDLKQLLALKGSSYSGLLERHHIHTKNVEHIIDSLRNEGIEVRLVKRREYDEETVRWADAVIAAGGDGTMLLAASKVLDRLKPVIGVNTDPERSEGHLCLPVRYTHSFPEALQKFYRGEFRWLWRQRIRLYLEGTGINPVPVDLHEQQLSLNQHNRALNIERAHDERSEASGPQLLPVRALNEVFIGESLSSRASYYEISVDDGPWEKQKSSGLNLCTGTGSKAWSFNINRVATQAVEDVLNIAKRQGNLSLPLNRELVEKVTNEYNESLLYSPEEPKILFSIREPIANRVFSSSRQRCFSSKVCVRSRCWDACMVVDGGTSFEFNDGAIASMMINKEDELRTVLLEQ
# B4: hflX K210A/N207A (Escherichia coli, UniProt P25519); chain MFDRYDAGEQAVLVHIYFTQDKDMEDLQEFESLVSSAGVEALQVITGSRKAPHPKYFVGEGKAVEIAEAVKATGASVVLFDHALSPAQERNLERLCECRVIDRTGLILDIFAQRARTHEGKLQVELAQLRHLATRLVRGWTHLERQKGGIGLRGPGETQLETDRRLLRNRIVQIQSRLERVEKQREQGRQSRIKADVPTVSLVGYTAAGASTLFNRITEARVYAADQLFATLDPTLRRIDVADVGETVLADTVGFIRHLPHDLVAAFKATLQETRQATLLLHVIDAADVRVQENIEAVNTVLEEIDAHEIPTLLVMNKIDMLEDFEPRIDRDEENKPNRVWLSAQTGAGIPQLFQALTERLSGEVAQHTLRLPPQEGRLRSRFYQLQAIEKEWMEEDGSVSLQVRMPIVDWRRLCKQEPALIDYLI
# B5: Pck1 A467G (Rattus norvegicus, UniProt P07379); chain MPPQLHNGLDFSAKVIQGSLDSLPQEVRKFVEGNAQLCQPEYIHICDGSEEEYGRLLAHMQEEGVIRKLKKYDNCWLALTDPRDVARIESKTVIITQEQRDTVPIPKSGQSQLGRWMSEEDFEKAFNARFPGCMKGRTMYVIPFSMGPLGSPLAKIGIELTDSPYVVASMRIMTRMGTSVLEALGDGEFIKCLHSVGCPLPLKKPLVNNWACNPELTLIAHLPDRREIISFGSGYGGNSLLGKKCFALRIASRLAKEEGWLAEHMLILGITNPEGKKKYLAAAFPSACGKTNLAMMNPTLPGWKVECVGDDIAWMKFDAQGNLRAINPENGFFGVAPGTSVKTNPNAIKTIQKNTIFTNVAETSDGGVYWEGIDEPLAPGVTITSWKNKEWRPQDEEPCAHPNSRFCTPASQCPIIDPAWESPEGVPIEGIIFGGRRPAGVPLVYEALSWQHGVFVGAAMRSEATAGAEHKGKVIMHDPFAMRPFFGYNFGKYLAHWLSMAHRPAAKLPKIFHVNWFRKDKNGKFLWPGFGENSRVLEWMFGRIEGEDSAKLTPIGYVPKEDALNLKGLGDVNVEELFGISKEFWEKEVEEIDKYLEDQVNADLPYEIERELRALKQRISQM
# B6: enzyme (Thermus thermophilus, UniProt Q5SJ64); chain MRNQELARIFEEIGLMSEFLGDNPFRVRAYHQAARTLYDLDTPIEEIAEKGKEALMELPGVGPDLAEKILEFLRTGKVRKHEELSRKVPRGVLEVMEVPGVGPKTARLLYEGLGIDSLEKLKAALDRGDLTRLKGFGPKRAERIREGLALAQAAGKRRPLGAVLSLARSLLEAIRALPGVERAELCGSARRYKDTVGDLDFLVASREGERAVEGFVRLPQVKEVYAKGKERATVFLKNGLQVDLRVVPPESYGAGLQYLTGSKAHSIRLRALAQEKGLKLSEYGVFRGEKRIAGETEEEVYAALGLPWIPPPLREDQGEVEAALEGRLPKLLELPQVKGDLQVHSTYSDGQNTLEELWEAAKTMGYRYLAVTDHSPAVRVAGGPSPEEALKRVGEIRRFNETHGPPYLLAGAEVDIHPDGTLDYPDWVLRELDLVLVSVHSRFNLPKADQTKRLLKALENPFVHVLAHPTARLLGRRAPIEADWEAVFQKAKEKGVAVEIDGYYDRMDLPDDLARMAYGMGLWISLSTDAHQTDHLRFMELAVGTAQRAWIGPERVLNTLDYEDLLSWLKARRGV
# B7: Paox H64A (Mus musculus, UniProt Q8C0L6); chain MAFPGPRVLVVGSGIAGLGAAQKLCSHRAAPHLRVLEATASAGGRIRSERCFGGVVELGAHWIAGPSQDNPVFQLAAEFGLLGEKELSEENQLVDTGGHVALPSMIWSSSGTSVSLELMTEMARLFYGLIERTREFLNESETPMASVGEFLKKEISQQVASWTEDDEDTRKRKLAILNTFFNIECCVSGTHSMDLVALAPFGEYTVLPGLDCILAGGYQGLTDRILASLPKDTVAFDKPVKTIHWNGSFQEAAFPGETFPVLVECEDGARLPAHHVIVTVPLGFLKEHQDTFFEPPLPAKKAEAIKKLGFGTNNKIFLEFEEPFWEPDCQFIQVVWEDTSPLQDTALSLQDTWFKKLIGFLVQPSFESSHVLCGFIAGLESEFMETLSDEEVLLSLTQVLRRVTGNPQLPAAKSVRRSQWHSAPYTRGSYSYVAVGSTGDDLDLMAQPLPEDGTGTQLQVLFAGEATHRTFYSTTHGALLSGWREADRLVSLWDSQVEQSRPRL
# B8: enzyme (Thermus thermophilus, UniProt Q72J81); chain MEVKRIGVVGAGQMGSGIAQVAASAGYEVVLVDVAESFLERGLAAIRRSLGKFLEKGKITQEAHDEALGRIRTSLSLEDLKDADLIVEAIVEDEGEKRRLFERLGALAKPEAILASNTSSIPITALARYSGRPERFIGMHFFNPVPLMQLVEVIRGELTSEATRDVVVEVARRMGKTPLEVQDYPGFISNRLLMPMINEAIEALREGVATKEAIDGIMRLGMNHPMGPLELADFIGLDTCLAIMEVLHRGFGDDKYRPSPLLRRMVQAGLLGRKAGRGFYTYDEKGNKVG
# Chain of UniProt O15439 (whole entry, looked up): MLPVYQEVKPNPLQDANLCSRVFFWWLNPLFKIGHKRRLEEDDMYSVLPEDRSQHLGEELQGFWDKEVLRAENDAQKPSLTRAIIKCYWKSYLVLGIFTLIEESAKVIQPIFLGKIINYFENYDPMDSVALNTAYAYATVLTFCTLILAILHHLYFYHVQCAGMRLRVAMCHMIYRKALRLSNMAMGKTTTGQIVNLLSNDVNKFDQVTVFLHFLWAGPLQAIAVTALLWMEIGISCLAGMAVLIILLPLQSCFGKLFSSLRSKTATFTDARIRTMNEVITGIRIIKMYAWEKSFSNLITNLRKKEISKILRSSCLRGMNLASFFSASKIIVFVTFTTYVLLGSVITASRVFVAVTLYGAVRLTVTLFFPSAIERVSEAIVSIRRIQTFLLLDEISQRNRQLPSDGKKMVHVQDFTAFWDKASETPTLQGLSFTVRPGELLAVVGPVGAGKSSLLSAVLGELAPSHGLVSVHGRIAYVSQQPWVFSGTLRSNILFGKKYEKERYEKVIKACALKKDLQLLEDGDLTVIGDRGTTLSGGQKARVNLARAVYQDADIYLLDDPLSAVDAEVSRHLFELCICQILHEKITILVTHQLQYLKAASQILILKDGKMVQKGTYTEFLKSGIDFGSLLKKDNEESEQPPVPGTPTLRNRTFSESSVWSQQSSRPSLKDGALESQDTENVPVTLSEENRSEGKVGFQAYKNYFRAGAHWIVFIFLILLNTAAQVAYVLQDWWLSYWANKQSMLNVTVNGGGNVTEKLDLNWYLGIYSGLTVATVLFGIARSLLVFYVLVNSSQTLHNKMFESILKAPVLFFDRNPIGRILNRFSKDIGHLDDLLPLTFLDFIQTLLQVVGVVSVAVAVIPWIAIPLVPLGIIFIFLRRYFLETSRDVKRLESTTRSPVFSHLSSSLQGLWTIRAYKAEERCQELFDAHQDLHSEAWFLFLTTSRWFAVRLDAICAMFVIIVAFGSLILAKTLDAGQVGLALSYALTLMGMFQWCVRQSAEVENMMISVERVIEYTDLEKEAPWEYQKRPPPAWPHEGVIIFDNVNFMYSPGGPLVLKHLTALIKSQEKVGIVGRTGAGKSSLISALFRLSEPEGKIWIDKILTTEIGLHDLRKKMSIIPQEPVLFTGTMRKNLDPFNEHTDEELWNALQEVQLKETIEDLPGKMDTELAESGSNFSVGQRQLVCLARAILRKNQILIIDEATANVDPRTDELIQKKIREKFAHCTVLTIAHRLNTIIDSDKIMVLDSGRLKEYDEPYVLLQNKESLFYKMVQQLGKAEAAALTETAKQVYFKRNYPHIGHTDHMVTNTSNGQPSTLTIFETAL
Molecule,substrate,conditions,Km [µM]
"enzyme (Anopheles gambiae, UniProt Q7PXJ0)",O=[N+]([O-])c1ccc(O)cc1,"pH 6.5, 37 °C",207
B1 (cyc1 F96Y),CC(C)=CCC/C(C)=C/CC/C(C)=C/CO[P@@](=O)(O)OP(=O)(O)O,"pH 6.5, 30 °C, together with: MgCl2 10 mM",1.8
B2 (BaiA2),C[C@H](CCC(=O)SCCNC(=O)CCNC(=O)[C@H](O)C(C)(C)COP(=O)(O)OP(=O)(O)OC[C@H]1O[C@@H](n2cnc3c(N)ncnc32)[C@H](O)[C@@H]1OP(=O)(O)O)[C@H]1CC[C@H]2[C@@H]3[C@H](O)C[C@@H]4C[C@H](O)CC[C@]4(C)[C@H]3C[C@H](O)[C@]12C,"pH 8.7, 37 °C, together with: NAD+",32
B3 (NADK2),O=P(O)(O)OP(=O)(O)OP(=O)(O)OP(=O)(O)O,"pH 8, 37 °C",1200
B4 (hflX K210A/N207A),Nc1nc2c(ncn2[C@@H]2O[C@H](COP(=O)(O)OP(=O)(O)OP(=O)(O)O)[C@@H](O)[C@H]2O)c(=O)[nH]1,"pH 8, 37 °C, together with: MgCl2 5 mM, NaCl 200 mM",2130
B5 (Pck1 A467G),Nc1nc2c(ncn2[C@@H]2O[C@H](COP(=O)(O)OP(=O)(O)OP(=O)(O)O)[C@@H](O)[C@H]2O)c(=O)[nH]1,"pH 7.5, 25 °C",47
B6 (enzyme),Nc1nc2c([nH]c(=O)n2[C@H]2C[C@H](O)[C@@H](COP(=O)(O)OP(=O)(O)OP(=O)(O)O)O2)c(=O)[nH]1,"pH 7.5, 37 °C",0.126
B7 (Paox H64A),CC(=O)NCCCNCCCCNCCCN,"pH 10, 30 °C",50
"ABCC4 (Homo sapiens, UniProt O15439)",Cc1nc2ccc(CN(C)c3ccc(C(=O)N[C@@H](CCC(=O)O)C(=O)O)s3)cc2c(=O)[nH]1,"pH 7.4, 37 °C, not purified, together with: ATP 5 mM",43.7
B8 (enzyme),NC(=O)C1=CN([C@@H]2O[C@H](COP(=O)(O)OP(=O)(O)OC[C@H]3O[C@@H](n4cnc5c(N)ncnc54)[C@H](O)[C@@H]3O)[C@@H](O)[C@H]2O)C=CC1,"pH 7, 65 °C, cofactor varied",33.4

# Some of these lines once more:
Molecule,substrate,conditions,Km [µM]
B4 (hflX K210A/N207A),Nc1nc2c(ncn2[C@@H]2O[C@H](COP(=O)(O)OP(=O)(O)OP(=O)(O)O)[C@@H](O)[C@H]2O)c(=O)[nH]1,"pH 8, 37 °C, together with: MgCl2 5 mM, NaCl 200 mM",2130
B5 (Pck1 A467G),Nc1nc2c(ncn2[C@@H]2O[C@H](COP(=O)(O)OP(=O)(O)OP(=O)(O)O)[C@@H](O)[C@H]2O)c(=O)[nH]1,"pH 7.5, 25 °C",47
